Measured values gathered from unrelated publications.
Compare with care: the assays were run in different laboratories. ± marks the error that the study gave.

Compound | test | system | conditions | scale | quantity | value
CSCC[C@H](NC(=O)[C@H](CC(C)C)NC(=O)[C@H](Cc1c[nH]cn1)NC(=O)CNC(=O)[C@@H](NC(=O)[C@H](C)NC(=O)[C@H](Cc1c[nH]c2ccccc12)NC(=O)[C@H](CCC(N)=O)NC(=O)CCCCCNC(=O)CNC(=O)CNC(=O)CNC(=O)CSC(C)=O)C(C)C)C(N)=O [technetium-99m labelled] |  | Swiss mouse, pancreas | intravenous, 18.5 MBq, 240 min |  | tissue uptake | 0.35 ± 0.05 %ID/g
CCCC[C@H](NC(=O)CCCCCCCNC(=O)c1ccc(NN)nc1)C(=O)N[C@H]1CC(=O)NCCCC[C@@H](C(N)=O)NC(=O)[C@H](Cc2c[nH]c3ccccc23)NC(=O)[C@H](CCCNC(=N)N)NC(=O)[C@@H](Cc2ccccc2)NC(=O)[C@H](Cc2c[nH]cn2)NC1=O [technetium-99m labelled] |  | C57 mouse, B16/F1 melanoma, skin | intravenous, 0.5 h |  | uptake | 3.62 ± 0.35 %ID/g
N=C(N)NCCC[C@@H]1NC(=O)[C@H](CCCCNC(=O)CCOCCOCCOCCOCCNC(=O)CN2CCN(CC(=O)O)CCN(CC(=O)O)CCN(CC(=O)O)CC2)NC(=O)[C@@H](Cc2ccccc2)NC(=O)[C@H](CC(=O)O)NC(=O)CNC1=O [indium-111 labelled] |  | athymic nude mice, female, U-87 MG glioma xenograft, tumour and liver | intravenous, 4 h | baseline: tumour over liver | tumour to tissue ratio | 2.83 ± 0.14
N=C(N)NCCC[C@@H]1NC(=O)[C@H](CCCCNC(=O)CCOCCOCCOCCOCCNC(=O)CC[C@H](NC(=O)[C@H](CCCCNC(=O)c2ccc(NN)nc2)NC(=O)c2ccc(NN)nc2)C(=O)NCCOCCOCCOCCOCCC(=O)NCCCC[C@@H]2NC(=O)[C@@H](Cc3ccccc3)NC(=O)[C@H](CC(=O)O)NC(=O)CNC(=O)[C@H](CCCNC(=N)N)NC2=O)NC(=O)[C@@H](Cc2ccccc2)NC(=O)[C@H](CC(=O)O)NC(=O)CNC1=O [technetium-99m labelled] |  | female athymic nude mice | intravenous, 1 h, U-87 MG glioma xenograft | baseline: tumour over blood | tissue ratio | 9.87 ± 1.65
CCCC[C@H](NC(=O)CNC(=O)CNC(=O)c1ccc(NN)nc1)C(=O)N[C@H]1CC(=O)NCCCC[C@@H](C(N)=O)NC(=O)[C@H](Cc2c[nH]c3ccccc23)NC(=O)[C@H](CCCNC(=N)N)NC(=O)[C@@H](Cc2ccccc2)NC(=O)[C@H](Cc2c[nH]cn2)NC1=O [technetium-99m labelled] |  | C57 mouse, B16/F1 melanoma | 2 h, with: NDP-MSH blockade | baseline: tumour over kidney | uptake ratio | 0.06
N=C(N)NCCC[C@@H]1NC(=O)[C@H](CCCCNC(=O)CCOCCOCCOCCOCCNC(=O)CC[C@H](NC(=O)CCOCCOCCOCCOCCNC(=O)c2ccc(NN)nc2)C(=O)NCCOCCOCCOCCOCCC(=O)NCCCC[C@@H]2NC(=O)[C@@H](Cc3ccccc3)NC(=O)[C@H](CC(=O)O)NC(=O)CNC(=O)[C@H](CCCNC(=N)N)NC2=O)NC(=O)[C@@H](Cc2ccccc2)NC(=O)[C@H](CC(=O)O)NC(=O)CNC1=O [technetium-99m labelled] |  | female athymic nude mice, U-87 MG glioma xenograft, tumour and blood | intravenous, 2.5 µCi, 60 min | baseline: tumour over blood | tissue-to-tissue ratio | 36 ± 11.5
N=C(N)NCCC[C@@H]1NC(=O)[C@H](CCCCNC(=O)CNC(=O)CNC(=O)CNC(=O)CC[C@H](NC(=O)CCOCCOCCOCCOCCNC(=O)CC[C@H](NC(=O)CN2CCN(CC(=O)O)CCN(CC(=O)O)CCN(CC(=O)O)CC2)C(=O)NCCOCCOCCOCCOCCC(=O)N[C@@H](CCC(=O)NCC(=O)NCC(=O)NCC(=O)NCCCC[C@@H]2NC(=O)[C@@H](Cc3ccccc3)NC(=O)[C@H](CC(=O)O)NC(=O)CNC(=O)[C@H](CCCNC(=N)N)NC2=O)C(=O)NCC(=O)NCC(=O)NCC(=O)NCCCC[C@@H]2NC(=O)[C@@H](Cc3ccccc3)NC(=O)[C@H](CC(=O)O)NC(=O)CNC(=O)[C@H](CCCNC(=N)N)NC2=O)C(=O)NCC(=O)NCC(=O)NCC(=O)NCCCC[C@@H]2NC(=O)[C@@H](Cc3ccccc3)NC(=O)[C@H](CC(=O)O)NC(=O)CNC(=O)[C@H](CCCNC(=N)N)NC2=O)NC(=O)[C@@H](Cc2ccccc2)NC(=O)[C@H](CC(=O)O)NC(=O)CNC1=O [indium-111 labelled] | planar imaging | athymic nude mouse, U-87 MG xenograft, tumour | intravenous |  | retention half-life | > 30 h
CCCCCC(=O)N[C@H]1CSCc2cc(CSCCNC(=O)CCCCCNC(=O)CC[C@H](NC(=O)CCC(C(=O)O)N3CCN(CC(=O)O)CCN(CC(=O)O)CCN(CC(=O)O)CC3)C(=O)NCCCOc3ccc4nccc(C(=O)NCC(=O)N5CC(F)(F)C[C@H]5C#N)c4c3)cc(c2)CSC[C@@H](C(=O)O)NC(=O)[C@H](Cc2ccccc2)NC(=O)[C@H](CCC(N)=O)NC(=O)[C@H]([C@@H](C)O)NC(=O)[C@@H]2CCCN2C(=O)[C@@H]2CCCN2C1=O (stereo partly shown) | radio-HPLC | mouse | intravenous |  | time intact in blood | ≥ 30 min
CCCC[C@H](NC(=O)[C@H](Cc1cccs1)NC(=O)[C@H](Cc1c[nH]cn1)NC(=O)CCNC(=O)[C@@H](NC(=O)[C@H](C)NC(=O)[C@H](Cc1c[nH]c2ccccc12)NC(=O)[C@H](CCC(N)=O)NC(=O)[C@H](Cc1cccs1)NC(=O)CN1CCC(NC(=O)CN(CCN(CCN(CC(=O)O)CC(=O)O)CC(=O)O)CC(=O)O)CC1)C(C)C)C(N)=O [indium-111 labelled] | radio-HPLC | male Swiss nu/nu mice, blood | intravenous, 1 nmol, 5 min |  | intact peptide | 9.8 ± 0.5%
N=C(N)NCCC[C@@H]1NC(=O)[C@H](CCCCNC(=O)CCOCCOCCOCCOCCNC(=O)CC[C@H](NC(=O)CCOCCOCCOCCOCCNC(=O)CC[C@H](NC(=O)CN2CCN(CC(=O)O)CCN(CC(=O)O)CCN(CC(=O)O)CC2)C(=O)NCCOCCOCCOCCOCCC(=O)N[C@@H](CCC(=O)NCCOCCOCCOCCOCCC(=O)NCCCC[C@@H]2NC(=O)[C@@H](Cc3ccccc3)NC(=O)[C@H](CC(=O)O)NC(=O)CNC(=O)[C@H](CCCNC(=N)N)NC2=O)C(=O)NCCOCCOCCOCCOCCC(=O)NCCCC[C@@H]2NC(=O)[C@@H](Cc3ccccc3)NC(=O)[C@H](CC(=O)O)NC(=O)CNC(=O)[C@H](CCCNC(=N)N)NC2=O)C(=O)NCCOCCOCCOCCOCCC(=O)NCCCC[C@@H]2NC(=O)[C@@H](Cc3ccccc3)NC(=O)[C@H](CC(=O)O)NC(=O)CNC(=O)[C@H](CCCNC(=N)N)NC2=O)NC(=O)[C@@H](Cc2ccccc2)NC(=O)[C@H](CC(=O)O)NC(=O)CNC1=O [indium-111 labelled] |  | female athymic nude mice, brain | intravenous, 3 µCi, 1 h, U-87 MG glioma xenograft |  | tissue uptake | 0.14 ± 0.03 %ID/g
